Results pooled from the literature.
Numbered parts are unrelated; each lists some results of a single study. Substitutions count along the parent as printed.

Sample 1
Target: Histone acetyltransferase KAT6A, winged helix 1, GST fusion (KAT6A, Homo sapiens, UniProt Q92794, residues 1-85)
Technique: protein binding microarray
Form: double-stranded DNA, one strand shown
Sample: in vitro
Concentration: not given
Setting: 8-mer, flanks averaged, mean of 2 arrays, mostly near background
Baseline: not given
Direction: higher = stronger binding
Endpoint: E-score
Construct (chain): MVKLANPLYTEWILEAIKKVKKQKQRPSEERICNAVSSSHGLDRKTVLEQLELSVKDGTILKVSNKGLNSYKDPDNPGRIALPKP
CTCCAGAC: -0.141
CTGTCATA: -0.0632
ACGGTACC: 0.246
AATAGTGG: -0.144
AAAAAGGC: -0.138
ATGTGCCC: 0.0307
TGAGGCCA: -0.189
CCGAGAAC: 0.00762
TCCGGAGA: 0.126
CATTCTGG: -0.212
AGACCCGG: 0.3
AAATTCAG: -0.126
AACAAAGT: -0.12
AATAAGAA: -0.131
ACGCGGAC: 0.353
CAGGCAGA: -0.184
GCCTGTTA: -0.119
ACCTAACA: -0.124

Sample 2
Target: Interferon regulatory factor 5, full length, phosphomimetic (IRF5, Homo sapiens, UniProt Q13568-2, residues 1-514, S451D/S453D/S456D/S462D)
Technique: protein-binding microarray
Form: double-stranded DNA, one strand shown
Sample: in vitro
Concentration: 940 nM top
Setting: 60-bp whole probe
Together with: salmon DNA 0.4 mg/ml
Baseline: random background probes
Direction: higher = stronger binding
Endpoint: fitted relative affinity
All sequences stand within: GCCTAGCAC … GTCTTGATTCGCTTGACGCTGCTG
GACGGTTTCGACACTGTGGACGTGCTA: 6.3 z-score
GACGGTATCGGTTTCTGGACGTGCTAG: 7.84 z-score
GACGGAATGGGTATCGGGACGTGCTAG: 0.763 z-score
TTAGATATCTGTATCGATTAGTGCTAG: 1.52 z-score
TTAGATTTCAGTATCGATTGGTGCTAG: 5.75 z-score
GACGGTTTCCTTTCTCTGACGTGCTAG: 2.1 z-score
TTAGGTCGCGGTTTCGGTTAGTGCTAG: 6.96 z-score
TTAGATTTGGGGTATCGATTAGTGCTA: 3.16 z-score
GTAGAACTGAGTTTCGATTAGTGCTAG: 7.49 z-score
ATTGCTTCCTCTTTCTCTGCGTGCTAG: 1.29 z-score
TTAGGACTTCTACTGCTTTAGTGCTAG: 0.231 z-score
TTAGGTTTCGGGCATCGGTTAGTGCTA: 8.93 z-score
TTAGGATTGCTTATCCTTTAGTGCTAG: -0.368 z-score
GACGGTTTCCTTATCCTGTCGTGCTAG: 2.96 z-score
TTAGGACTGGACACTTGGTTAGTGCTA: -0.659 z-score
TTAGTTATCAGTATCGATTAGTGCTAG: 4.92 z-score
GACGGTATCGTACTGGGGACGTGCTAG: 1.61 z-score
GACGGTTTCGGGTTTCGGAACGTGCTA: 8.32 z-score
ATGGCAAAAAAAAAAGATTTGTGCTAG: -0.271 z-score
GACGGTTTCGACTAGCGGGACGTGCTA: 9.12 z-score
CTTTCTATCTCTGTTTTTGCGTGCTAG: 2.38 z-score

Sample 3
Target: CCNA1, cyclin fold, Cln2 fusion (human)
Technique: yeast growth competition, sequencing
Sample: yeast
Setting: weak parent motif
Baseline: not given
Direction: higher = stronger binding
Endpoint: normalised enrichment score
Starting sequence: TICRR docking peptide (human); TKVRRNLFNQELL
TKVRRALFNQELL [N6A]: 0.663
TKVRRNLFNQEAL [L12A]: 0.172
TKVRRNAFNQELL [L7A]: 0.286
TKVRRNLFNAELL [Q10A]: 0.349
TKVRRNLFNQALL [E11A]: 0.317
TKVRRNLFNQELA [L13A]: 0.841
TKVRRNLLNQELL [F8L]: 0.711
TAVRRNLFNQELL [K2A]: 0.74
TKVRKNLLNQELL [R5K F8L]: 0.321
TKVRANAFNQELL [R5A L7A]: 0.0627

Sample 4
Target: PABPC1L2, full length, GST fusion (mouse, UniProt A0ABA7IW68)
Technique: RNAcompete
Form: RNA
Sample: in vitro
Concentration: 20 nM
Setting: 7-mer, probes averaged, single round
Baseline: mean of 7-mers
Direction: higher = stronger binding
Endpoint: 7-mer Z-score
Construct (chain): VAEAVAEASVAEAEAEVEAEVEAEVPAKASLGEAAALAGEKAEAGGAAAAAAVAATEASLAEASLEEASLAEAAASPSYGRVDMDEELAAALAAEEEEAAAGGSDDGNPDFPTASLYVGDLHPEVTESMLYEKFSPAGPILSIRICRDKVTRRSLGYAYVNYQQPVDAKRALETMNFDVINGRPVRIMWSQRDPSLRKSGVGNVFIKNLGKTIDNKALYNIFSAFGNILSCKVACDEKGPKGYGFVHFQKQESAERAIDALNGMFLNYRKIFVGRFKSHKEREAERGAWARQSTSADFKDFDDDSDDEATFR
AUUAUUG: -0.166
CGGUGAG: -0.182
AAAUGAC: 0.932
GGCUUGA: -0.0301
UCCAGGC: -0.126
UUCGCCA: -0.344
CAACUGU: -0.311
AUGUAAG: 0.0406
UGUCGCA: -0.333
AGACAGG: -0.128
CUAGACA: -0.112
CUCCUCG: -0.565
CGGCGCU: -0.021
GGCCGAC: 0.066
CCGACUU: -0.286
UCUGAGG: -0.0989
AUCCUUC: -0.351
AGCGACC: 0.321
CGUGAAG: -0.157
GACCUAG: -0.15
AACUGCA: 0.0116
GAUUAGU: -0.206
ACGGUUG: -0.124
GCUUCAC: -0.177

Sample 5
Target: RNA binding protein fox-1 homolog 2, RRM domain, GST-SBP tag (RBFOX2, Homo sapiens, UniProt O43251-10, residues 100-194)
Technique: RNA Bind-n-Seq
Form: RNA
Sample: in vitro
Concentration: 365 nM
Setting: natural RNA segment, single round, ends assumed
Baseline: no-protein control
Direction: higher = stronger binding
Endpoint: RBNS enrichment (R)
All sequences stand within: GGGAGUUCUACAGUCCGACGAUC … UGGAAUUCUCGGGUGCCAA
Construct (chain): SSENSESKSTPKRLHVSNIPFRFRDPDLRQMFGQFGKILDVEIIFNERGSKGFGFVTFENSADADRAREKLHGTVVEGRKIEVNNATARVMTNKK
UUUCGCGGACGCGCCUACCUAAGUACCAUUUACAGAAAGUGACUCUGGCUGUCAUUAUUUUGUUUAUUUGUUCCCUAUGCAAAAAAAAAAUGAAAAUGAAAAAAGGGGGA: 0.477
AUUGUGGGGAGGUCUACUUUAGACAACUUGGUUUUGCACAUAUUUUCUCUAAUUUCUCUGUUCAGAGCCCCAGCAGACCUUAUUACUGGGGUAAGGCAAGUCUGUUGACU: 0.429
CACCCCAGAAAAUCACUGUGAAAUUUCAUGAUUGGCUUAAAGUGAAGGAAAUAAAGGUAAAAUCACUUCAGAUCUCUAAUUAUCAAGCGAAGCUUUUAUUGUUACACUUC: 0.396
GCUGACUUUGCAGUUUGCUUGUGCUAUGACAUUUAUUGUAGGUGCUAUUUAGGGUAGGCUUAAAGUGCUGGGUGGUGAUUUGAGUUCAAACAAUAAAAAAUUGUAUUUUU: 0.777
CAGGUGGAGCCACCUGCUGGGCUCCCCCAGAACUUUGCACACAUCUUGCUAUGUAUUAGCCGAUGUCUUUAGUGUUGAGCCUCUGGAUUCUGGGGUCUGGGCCAGUGGCC: 0.342
UUUAAAUGAAGAGGGGAAUAAACAAGUUGACAGACUCAGGAAUGUAAACAGACAAGGAAGAUAUCCUCUGUACCAGUGAUGUCCUGCCCCCAGUGCAUUUCUUCACAGUG: 0.584
UUCAGGACUGUUCCUUGGUGUUUGAGGGAAACUUUAGUGGGAUUGCAGUGGAAUGUAAGGUCAGGGCACGUGGGUGCUCUCUCGGGGUGGGGUGACUGGGAGACCUAGAG: 1.5
UUGACCUUUGGACGCCACCUGUAAUCACUCUGGAUGGUGUCUGUGGAGUUCAGGUUUAUUUUCUAUUUAAAUGAACUAAAAGCCAGCAUCCUGCCGGGCGUGGUGGCUCA: 0.326
AAGAGUACUUACAGCUUGAGGGAAAAGCAUAAAGUUUUAGUUAAAUAGCCUUCAUACUGUGGAUUUUUCCUCCUACUAACUAAUAUGUGGGAAAUUAAGAUUACAGAUGC: 0.426
GGUACACAUUAGAGUGUCUUUGAGUUCAACAAGUUGGUACUGUUGCAAACACCUUCUGAAUUGCCAGCGCCCGGGUUUUUAUGUAAAAAUAGAGUGGCUAUGGAAGUUAC: 0.828
AAUGGAUUGCAGGGGAAGGAAGGCCCAGGGCCCUGUGUGUCAUGCCCUCUUGGGUUCCUAAGUUCUAUGUUCCUUAGAGGUUCUAGCAUUAAACAGAUAAAGCCCUUCAU: 0.345
CUAGGGUGUUGCGUGCUGUGCUAAGUAAAUUUUAAGUCUUUCAGUUUUAUAGAUACGGAAAACAAGGGUGACUCUUUACCACAGGAUGAAUAAAGAACUAAGUAAUAUGG: 0.895

Sample 6
Target: BATF3, bZIP domain (human)
Technique: DHFR protein complementation
Sample: yeast
Setting: single substitutions, most at no-binding floor
Baseline: wild-type JUN-FOS pair
Direction: higher = stronger binding
Endpoint: binding fitness
Starting sequence: JUN, bZIP domain (human); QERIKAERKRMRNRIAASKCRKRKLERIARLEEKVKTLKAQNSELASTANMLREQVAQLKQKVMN; partner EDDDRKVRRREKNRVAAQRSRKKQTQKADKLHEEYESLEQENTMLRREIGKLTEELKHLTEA
L59H: 0.147 natural log
A46K: 0.255 natural log
V35R: -0.0732 natural log
A49Y: 0.209 natural log
T37H: 0.325 natural log
A57N: 0.151 natural log
K34M: 0.223 natural log
L59C: 0.156 natural log
L52Y: -0.0554 natural log
L31W: 0.226 natural log
E33W: 0.126 natural log
Q55F: -0.0591 natural log
E54M: 0.166 natural log
M51L: 0.233 natural log
A46T: 0.262 natural log
E54A: 0.124 natural log
A49Q: 0.037 natural log
R53W: -0.0508 natural log
E33K: 0.14 natural log
I28H: 0.299 natural log
E44W: 0.0504 natural log
Q41M: 0.167 natural log
E44A: 0.148 natural log
I28D: 0.206 natural log
S47D: 0.278 natural log

Sample 7
Target: ABI1, truncated, D143A, DHFR fusion (Arabidopsis thaliana)
Technique: DHFR PCA, deep sequencing
Sample: yeast
Setting: methotrexate growth selection, single substitutions
Together with: (+)-ABA 17 µM
Baseline: wild-type fitted maximum
Direction: higher = stronger binding
Endpoint: relative binding score
Starting sequence: PYL1, truncated, DHFR fusion (Arabidopsis thaliana); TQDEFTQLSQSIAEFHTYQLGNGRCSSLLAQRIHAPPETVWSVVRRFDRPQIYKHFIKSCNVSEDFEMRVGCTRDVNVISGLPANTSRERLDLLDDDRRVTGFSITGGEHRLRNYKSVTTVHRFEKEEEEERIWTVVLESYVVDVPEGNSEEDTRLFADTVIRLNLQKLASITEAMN
R46K: 68.3%
D97E: 107%
N149I: 22.4%
F15M: 49.3%
I79E: 36.2%
N22H: 85.7%
K126Y: 86.2%
T160H: 66.9%
T1S: 80.9%
S11N: 64.8%
S171R: 91.4%
D3E: 85.7%
G71C: 19%
V76Q: 2.01%

Mixed results
PhoQ, residues 284 288 289 292 302 303 ALVSVA
fold induction (PhoP, residues 12 14 15 18 19 NMSFL (Escherichia coli, UniProt P23836); Sort-seq, refers to: YFP reporter; E. coli; PhoQ-PhoP variant library, together with: 10 µM Mg2+; baseline: high Mg2+ state, higher = stronger signaling): 13.7
